# Results from different studies.
# Lines come from different studies, so protocols differ. ± gives the spread as reported.
# PTGS1: Prostaglandin G/H synthase 1 (PTGS1, Ovis aries, UniProt P05979)
# Sequence of UniProt P05979 (whole entry, looked up): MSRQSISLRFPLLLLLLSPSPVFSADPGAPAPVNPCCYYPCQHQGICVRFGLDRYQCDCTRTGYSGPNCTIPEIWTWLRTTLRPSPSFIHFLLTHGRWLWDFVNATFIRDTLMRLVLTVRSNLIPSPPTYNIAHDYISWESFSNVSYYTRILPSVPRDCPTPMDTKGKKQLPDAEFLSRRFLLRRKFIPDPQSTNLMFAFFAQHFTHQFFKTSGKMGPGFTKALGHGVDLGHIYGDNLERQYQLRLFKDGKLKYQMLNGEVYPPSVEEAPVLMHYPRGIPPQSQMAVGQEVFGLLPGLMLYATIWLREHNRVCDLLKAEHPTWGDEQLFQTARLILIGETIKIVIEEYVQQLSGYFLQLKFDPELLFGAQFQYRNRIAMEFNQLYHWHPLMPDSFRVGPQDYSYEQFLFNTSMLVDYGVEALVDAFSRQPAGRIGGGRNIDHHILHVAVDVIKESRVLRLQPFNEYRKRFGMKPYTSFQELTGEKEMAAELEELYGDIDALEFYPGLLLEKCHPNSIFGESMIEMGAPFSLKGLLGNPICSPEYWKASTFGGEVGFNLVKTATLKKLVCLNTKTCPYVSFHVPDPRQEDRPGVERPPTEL
# HDAC3: Histone deacetylase 3 (HDAC3, Homo sapiens, UniProt O15379)
# Sequence of UniProt O15379 (whole entry, looked up): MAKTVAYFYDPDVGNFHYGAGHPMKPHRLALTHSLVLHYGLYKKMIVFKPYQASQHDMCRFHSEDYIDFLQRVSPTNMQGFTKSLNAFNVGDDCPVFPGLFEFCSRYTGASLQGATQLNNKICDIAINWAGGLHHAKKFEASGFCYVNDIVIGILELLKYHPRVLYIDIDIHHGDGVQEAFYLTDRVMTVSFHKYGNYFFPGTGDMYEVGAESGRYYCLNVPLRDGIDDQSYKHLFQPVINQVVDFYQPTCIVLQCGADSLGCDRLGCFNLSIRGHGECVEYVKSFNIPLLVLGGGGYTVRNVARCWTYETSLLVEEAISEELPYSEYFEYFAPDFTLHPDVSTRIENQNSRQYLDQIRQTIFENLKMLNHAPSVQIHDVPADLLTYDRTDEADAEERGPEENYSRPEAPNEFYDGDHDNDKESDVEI
# CPL: CPL (Toxoplasma gondii, UniProt Q6DMN0)
# CES2: Cocaine esterase (CES2, Homo sapiens, UniProt O00748)
# Sequence of UniProt O00748 (whole entry, looked up): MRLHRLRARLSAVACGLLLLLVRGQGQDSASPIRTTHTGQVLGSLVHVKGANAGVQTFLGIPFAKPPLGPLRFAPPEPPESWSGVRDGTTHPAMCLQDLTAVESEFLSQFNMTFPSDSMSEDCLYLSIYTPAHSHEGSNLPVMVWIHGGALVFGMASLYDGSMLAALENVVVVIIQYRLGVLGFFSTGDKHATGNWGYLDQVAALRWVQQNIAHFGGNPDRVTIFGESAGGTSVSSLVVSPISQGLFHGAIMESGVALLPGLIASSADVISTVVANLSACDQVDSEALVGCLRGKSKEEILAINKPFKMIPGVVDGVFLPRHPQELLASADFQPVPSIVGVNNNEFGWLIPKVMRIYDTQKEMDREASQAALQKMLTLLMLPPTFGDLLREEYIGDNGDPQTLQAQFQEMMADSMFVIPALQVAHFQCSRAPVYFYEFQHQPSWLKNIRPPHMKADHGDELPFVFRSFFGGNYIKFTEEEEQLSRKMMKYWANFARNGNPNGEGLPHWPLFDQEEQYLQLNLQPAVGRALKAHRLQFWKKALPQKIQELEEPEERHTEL
# Sequence of UniProt P48546 (whole entry, looked up): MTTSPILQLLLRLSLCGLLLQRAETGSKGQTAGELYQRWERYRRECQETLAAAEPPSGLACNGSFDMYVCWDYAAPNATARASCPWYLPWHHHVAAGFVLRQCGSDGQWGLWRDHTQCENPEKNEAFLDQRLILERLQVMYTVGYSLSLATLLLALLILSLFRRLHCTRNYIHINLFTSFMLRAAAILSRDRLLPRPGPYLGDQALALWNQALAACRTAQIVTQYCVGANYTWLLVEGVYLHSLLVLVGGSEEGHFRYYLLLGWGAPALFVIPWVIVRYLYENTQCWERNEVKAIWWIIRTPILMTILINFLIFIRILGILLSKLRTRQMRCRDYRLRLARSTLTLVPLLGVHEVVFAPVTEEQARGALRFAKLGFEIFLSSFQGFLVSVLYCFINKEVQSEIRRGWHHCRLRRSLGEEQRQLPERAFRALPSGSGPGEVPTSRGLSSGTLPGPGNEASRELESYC
# Sequence of UniProt P0A031 (whole entry, looked up): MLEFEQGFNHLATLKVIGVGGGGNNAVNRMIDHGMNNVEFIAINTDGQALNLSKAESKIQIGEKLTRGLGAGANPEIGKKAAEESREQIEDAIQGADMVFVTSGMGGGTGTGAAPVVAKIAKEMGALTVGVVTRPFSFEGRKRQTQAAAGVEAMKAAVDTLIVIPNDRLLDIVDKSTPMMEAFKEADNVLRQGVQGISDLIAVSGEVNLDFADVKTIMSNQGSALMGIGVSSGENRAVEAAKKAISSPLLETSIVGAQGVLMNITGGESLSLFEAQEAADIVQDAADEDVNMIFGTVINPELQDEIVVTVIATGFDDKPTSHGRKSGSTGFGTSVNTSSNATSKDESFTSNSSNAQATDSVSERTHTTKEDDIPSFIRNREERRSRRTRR
# Sequence of UniProt A0QSG6 (whole entry, looked up): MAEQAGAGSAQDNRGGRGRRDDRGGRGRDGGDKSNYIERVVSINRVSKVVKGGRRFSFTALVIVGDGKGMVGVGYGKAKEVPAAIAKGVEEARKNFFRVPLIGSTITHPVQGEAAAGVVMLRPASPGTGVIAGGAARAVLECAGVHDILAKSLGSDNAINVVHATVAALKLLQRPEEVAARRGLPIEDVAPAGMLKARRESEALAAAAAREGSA
# Sequence of UniProt Q96P56 (whole entry, looked up): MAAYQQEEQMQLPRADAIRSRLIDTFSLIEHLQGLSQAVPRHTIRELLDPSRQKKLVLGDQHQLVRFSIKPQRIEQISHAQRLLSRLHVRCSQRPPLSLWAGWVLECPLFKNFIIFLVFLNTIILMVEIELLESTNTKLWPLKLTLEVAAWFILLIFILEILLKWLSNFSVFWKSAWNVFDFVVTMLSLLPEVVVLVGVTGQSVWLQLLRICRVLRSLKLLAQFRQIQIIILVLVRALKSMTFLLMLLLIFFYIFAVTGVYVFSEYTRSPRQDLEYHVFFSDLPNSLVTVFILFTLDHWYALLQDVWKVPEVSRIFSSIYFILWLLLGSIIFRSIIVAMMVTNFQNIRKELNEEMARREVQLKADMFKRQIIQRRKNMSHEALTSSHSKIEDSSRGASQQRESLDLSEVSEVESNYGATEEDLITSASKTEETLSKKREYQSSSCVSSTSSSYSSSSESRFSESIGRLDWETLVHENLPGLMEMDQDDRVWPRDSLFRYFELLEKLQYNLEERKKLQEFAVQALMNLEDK
# Sequence of UniProt P49760 (whole entry, looked up): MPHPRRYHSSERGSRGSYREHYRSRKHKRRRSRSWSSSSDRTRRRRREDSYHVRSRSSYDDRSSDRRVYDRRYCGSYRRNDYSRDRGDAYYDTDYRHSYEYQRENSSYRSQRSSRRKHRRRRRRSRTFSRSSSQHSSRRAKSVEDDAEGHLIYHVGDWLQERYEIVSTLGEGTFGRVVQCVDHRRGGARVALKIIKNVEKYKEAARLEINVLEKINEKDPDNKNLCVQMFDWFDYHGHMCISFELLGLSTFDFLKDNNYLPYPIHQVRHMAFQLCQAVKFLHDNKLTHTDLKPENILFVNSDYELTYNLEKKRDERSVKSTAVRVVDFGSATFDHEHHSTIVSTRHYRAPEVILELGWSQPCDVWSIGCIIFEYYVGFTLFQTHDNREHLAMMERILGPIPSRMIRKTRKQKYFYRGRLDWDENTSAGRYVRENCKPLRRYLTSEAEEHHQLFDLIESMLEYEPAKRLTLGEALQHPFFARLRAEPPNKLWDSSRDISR
# Sequence of UniProt P07237 (whole entry, looked up): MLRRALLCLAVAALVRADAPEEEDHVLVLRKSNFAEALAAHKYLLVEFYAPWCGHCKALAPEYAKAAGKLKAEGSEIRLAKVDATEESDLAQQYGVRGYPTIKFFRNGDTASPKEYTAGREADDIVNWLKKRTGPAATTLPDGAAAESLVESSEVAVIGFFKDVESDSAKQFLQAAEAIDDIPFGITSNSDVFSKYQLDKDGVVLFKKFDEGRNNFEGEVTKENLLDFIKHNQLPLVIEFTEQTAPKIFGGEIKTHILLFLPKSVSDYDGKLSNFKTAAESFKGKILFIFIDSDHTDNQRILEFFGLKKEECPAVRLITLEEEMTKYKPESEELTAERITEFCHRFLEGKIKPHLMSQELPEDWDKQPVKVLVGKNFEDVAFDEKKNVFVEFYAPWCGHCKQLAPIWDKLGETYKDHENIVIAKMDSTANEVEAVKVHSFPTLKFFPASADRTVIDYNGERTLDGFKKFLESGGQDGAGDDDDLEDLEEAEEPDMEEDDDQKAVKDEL
# Sequence of UniProt P09483 (whole entry, looked up): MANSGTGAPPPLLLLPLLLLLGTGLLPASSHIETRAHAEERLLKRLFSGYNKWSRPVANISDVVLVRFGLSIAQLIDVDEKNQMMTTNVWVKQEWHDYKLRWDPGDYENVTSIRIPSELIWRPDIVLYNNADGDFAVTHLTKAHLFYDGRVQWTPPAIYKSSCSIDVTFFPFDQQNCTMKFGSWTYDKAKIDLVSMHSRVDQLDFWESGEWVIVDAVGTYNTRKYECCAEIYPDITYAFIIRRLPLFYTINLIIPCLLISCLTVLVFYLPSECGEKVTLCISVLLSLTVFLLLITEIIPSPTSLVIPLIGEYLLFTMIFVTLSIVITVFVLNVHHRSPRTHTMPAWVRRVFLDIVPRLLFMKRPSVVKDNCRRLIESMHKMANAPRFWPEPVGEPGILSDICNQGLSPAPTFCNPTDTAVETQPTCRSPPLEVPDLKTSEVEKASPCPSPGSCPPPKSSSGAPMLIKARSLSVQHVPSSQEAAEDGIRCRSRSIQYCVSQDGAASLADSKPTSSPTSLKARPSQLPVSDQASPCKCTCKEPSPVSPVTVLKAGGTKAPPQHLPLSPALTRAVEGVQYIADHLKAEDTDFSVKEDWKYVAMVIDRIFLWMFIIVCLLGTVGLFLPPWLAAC
SMILES,target,assay,system,setting,IC50
CN(CCO)c1ccc(/C=C/C(=O)c2cccc3ccccc23)cc1,PTGS1,"enzyme activity, inhibitor, ELISA",,,189000 nM
CC(C)C[C@@H](NC(=O)CNC(=O)/C=C/c1ccco1)C(N)=O,"Mycosin-1 (Mycolicibacterium thermoresistibile, UniProt G7CDQ2)","enzyme activity, inhibitor",,,146000 nM
CN[C@@H]1[C@H](O)[C@H](NC)[C@H]2O[C@]3(O)[C@H](O[C@@H]2[C@H]1O)O[C@H](C)C[C@@]3(O)CNCc1ccc(Cl)cc1,"Small ribosomal subunit protein uS5, 70S ribosome (rpsE, Mycolicibacterium smegmatis, UniProt A0QSG6)","translation, inhibitor, in vitro translation, luciferase",Mycobacterium smegmatis ribosomes,,0.3 µg/mL
CC(C)[C@@H]1NC(=O)[C@]2(C)CSC(=N2)c2cccc(n2)CNC(=O)C[C@@H](/C=C/CCS)OC1=O,"Histone deacetylase 3, with NCoR2 (HDAC3, Homo sapiens, UniProt O15379)",inhibitor,,,17.9 nM
C=C(C)[C@]12C[C@@H](C)[C@@]34O[C@](Cc5ccccc5)(O[C@@H]1[C@@H]3C=C(COC(=O)Cc1cc(I)c(O)c(OC)c1)C[C@]1(O)C(=O)C(C)=C[C@@H]41)O2,"Trpv1 (Rattus norvegicus, UniProt O35433)","calcium signal, antagonist, fluorescence",,,200 nM
O=C(N[C@@H](Cc1ccccc1)C(=O)N[C@@H](C[C@H]1CCNC1=O)C(=O)C(=O)NC1CC1)OCc1ccccc1,"Genome polyprotein, 3C protease (Human enterovirus D68, UniProt Q68T42)","3C protease activity, inhibitor, FRET",,,93 ± 10 nM
C#Cc1ccc(N2CCNCC2)cc1,"Endothiapepsin (EAPA, Cryphonectria parasitica, UniProt P11838)","enzyme activity, inhibitor, fluorescence",,,142000 nM
CC(C)C[C@@H]1NC(=O)[C@H](Cc2c[nH]c3ccccc23)NC(=O)[C@H](Cc2ccc(O)cc2)NC(=O)[C@H](CCCNC(=N)N)NC(=O)[C@@H](NC(=O)[C@@H](N)CCC(=O)O)CSSC[C@@H]2NC(=O)[C@@H]3CSSC[C@@H](C(=O)N[C@H](C(=O)N[C@@H](Cc4c[nH]c5ccccc45)C(=O)N[C@@H](CC(=O)O)C(=O)NCC(=O)N[C@H](C(=O)N[C@@H](Cc4ccccc4)C(=O)N[C@@H](CO)C(=O)O)[C@@H](C)O)C(C)C)NC(=O)[C@H](Cc4c[nH]c5ccccc45)NC(=O)CNC(=O)[C@H](Cc4c[nH]cn4)NC(=O)[C@H](CCCNC(=N)N)NC(=O)[C@H](CCCNC(=N)N)NC(=O)[C@H](CO)NC(=O)[C@H](CSSC[C@H](NC(=O)CNC(=O)CNC1=O)C(=O)N[C@@H](CO)C(=O)N[C@@H](C)C(=O)NCC(=O)N[C@@H](CCC(N)=O)C(=O)N[C@@H]([C@@H](C)O)C(=O)N3)NC(=O)[C@H](C(C)C)NC(=O)[C@H](CC(C)C)NC(=O)[C@H](Cc1c[nH]cn1)NC(=O)[C@H](CCCCN)NC2=O,"TRPA1 (Homo sapiens, UniProt O75762)",,,,389 ± 77 nM
CC(C)C[C@@H]1NC(=O)[C@H](CCCNC(=N)N)NC(=O)[C@H](CCCCN)NC(=O)[C@H](CC(=O)O)NC(=O)[C@H](CCCCN)NC(=O)[C@@H](CO)NC1=O,"Disintegrin and metalloproteinase domain-containing protein 8 (Homo sapiens, UniProt P78325)","enzyme activity, inhibitor, fluorescence",,,120 nM
CC(C)C[C@@H]1NC(=O)[C@H](CCCCN)NC(=O)[C@H](CC(C)C)NC(=O)[C@@](C)(NC(=O)[C@H](Cc2ccccc2)NC(=O)[C@H](Cc2ccc(O)cc2)NC(=O)[C@H](C)NC(=O)[C@@H](NC(=O)c2ccc3c(c2)C(=O)OC32c3ccc(O)cc3Oc3cc(O)ccc32)[C@@H](C)O)CCCC=CCCC[C@@](C)(C(=O)NCC(=O)N[C@@H](CCCNC(=N)N)C(=O)N[C@@H](Cc2c[nH]c3ccccc23)C(N)=O)NC1=O,"Gag-Pol polyprotein, integrase (gag-pol, Human immunodeficiency virus type 1 group M subtype B, UniProt P04585)","integrase strand transfer, inhibitor",,,6000 ± 1000 nM
CCCCCOC(=O)c1ccc(Nc2ccccc2C(=O)O)cc1,"Androgen receptor (AR, Homo sapiens, UniProt P10275)","reporter gene, antagonist, MMTV-Luc reporter",MDA-kb2,"20 h, added: 8 nM DHT (EC90)",83800 ± 20700 nM
C=CCCNC(=O)[C@H](CC(C)C)NC(=O)CN(CC=C)C(=O)[C@H](CCC(N)=O)NC(=O)[C@H](Cc1ccc(OP(=O)(O)O)cc1)NC(C)=O,"SHC-transforming protein 1, SH2 (Homo sapiens, UniProt P29353)","ligand displacement, FP",,,14000 nM
O=C(CCCCCCC(=O)Nc1ccccc1N=Nc1ccccc1)NO,HDAC3,"enzyme activity, inhibitor",,trans isomer,8 ± 2 nM
Cc1ccccc1/C=C/C(=O)C(c1ccccc1)c1ccccc1,PTGS1,"enzyme activity, inhibitor, ELISA",,,58500 nM
CCN(CC)C(=O)N1CCN(c2cccc(C(F)(F)F)c2)CC1,"CatSper channel complex (Homo sapiens, UniProt Q7RTX7+Q86XQ3+Q8NEC5+Q96P56)","calcium influx, inhibitor, FLIPR",human sperm,added: 3 µM progesterone,39000 nM
CC(C)CCN(CCc1ccccc1)c1nc(C#N)nc(N2CCOCC2)n1,CPL,"enzyme activity, inhibitor, Z-L-R-AMC hydrolysis fluorescence",,,110 nM
C[C@@H]1NC(=O)[C@H](CCC(=O)O)NC(=O)[C@@H]2CSSC[C@H](NC(=O)[C@H](CCCCN)NC(=O)CNC1=O)C(=O)N[C@@H](CO)C(=O)N[C@H]1CSSC[C@H](NC(=O)[C@H](CC(=O)O)NC(=O)[C@@H]3CSSC[C@H](NC(=O)[C@H](Cc4ccc(O)cc4)NC1=O)C(=O)N[C@@H](CC(=O)O)C(=O)N[C@@H](C)C(=O)NCC(=O)N[C@@H](CC(=O)O)C(=O)N3)C(=O)N[C@@H](CCCCN)C(=O)N2,"Lymphocyte function-associated antigen 3 (CD58, Homo sapiens, UniProt P19256)",,human cells,,27 ± 15 nM
COc1ccccc1CN(CCC(C)C)c1nc(C#N)nc(N2CCOCC2)n1,CPL,"enzyme activity, inhibitor, Z-L-R-AMC hydrolysis fluorescence",,,970 nM
COc1ccc(C(=O)CCl)c2c1C(=O)CO2,"Protein FosB, ΔFosB isoform (Fosb, Mus musculus, UniProt P13346)","ΔFOSB homodimer DNA binding, fluorescence polarization",,"15 min, added: TMR-cdk5 oligonucleotide",27400 ± 100 nM
Fc1ncc(C2CC3CCC2N3)cc1-c1ccnc(Cl)c1 (racemic),"Neuronal acetylcholine receptor; alpha4/beta2 (Rattus norvegicus, UniProt P09483+P12390)","ion current, antagonist, two-electrode voltage clamp",,oocytes,2000 nM
N#CC(C#N)C(c1ccc(Cl)cc1)c1c[nH]c2ccccc12 (stereo not shown),CES2,"enzyme activity, inhibitor",human liver microsomes,"pH 7.4, 37 °C, added: fluorescein diacetate",> 100000 nM
CC[C@H](C)[C@H](NC(=O)[C@H](CO)NC(=O)[C@H](Cc1ccc(O)cc1)NC(=O)[C@H](CC(=O)O)NC(=O)[C@H](CO)NC(=O)[C@@H](NC(=O)[C@H](Cc1ccccc1)NC(=O)[C@@H](NC(=O)CNC(=O)[C@@H]1CCCN1C(=O)[C@H](C)NC(=O)[C@@H](N)Cc1ccc(O)cc1)[C@@H](C)O)[C@@H](C)CC)C(=O)N[C@@H](C)C(=O)N[C@@H](CCSC)C(=O)N[C@@H](CC(=O)O)C(=O)N[C@@H](CCCCN)C(=O)N[C@H](C(=O)N[C@@H](CCCNC(=N)N)C(=O)N[C@@H](CCC(N)=O)C(=O)N[C@@H](CCC(N)=O)C(=O)N[C@@H](CC(=O)O)C(=O)N[C@@H](Cc1ccccc1)C(=O)N[C@H](C(=O)N[C@@H](CC(N)=O)C(=O)N[C@@H](Cc1c[nH]c2ccccc12)C(=O)N[C@@H](CC(C)C)C(=O)N[C@@H](CC(C)C)C(=O)N[C@@H](C)C(=O)N[C@@H](CCC(N)=O)C(=O)N[C@@H](CCCCN)C(=O)NCC(=O)N[C@@H](CCCCN)C(=O)N[C@@H](CCCCN)C(=O)N[C@@H](CC(N)=O)C(=O)N[C@@H](CC(=O)O)C(=O)N[C@@H](Cc1c[nH]c2ccccc12)C(=O)N[C@@H](CCCCN)C(=O)N[C@@H](Cc1c[nH]cn1)C(=O)N[C@@H](CC(N)=O)C(=O)N[C@@H](CC(C)C)C(=O)N[C@H](C(=O)N[C@@H](CCC(N)=O)C(=O)O)[C@@H](C)O)C(C)C)[C@@H](C)CC,"GIPR (Homo sapiens, UniProt P48546)","ligand displacement in cells, radioligand",,,12.6 nM
CC(C)CCN(Cc1cccc(C(F)(F)F)c1)c1nc(C#N)nc(N2CCOCC2)n1,CPL,"enzyme activity, inhibitor, Z-L-R-AMC hydrolysis fluorescence",,,17 nM
CC(C)(C)c1ccc(S(=O)(=O)N2CC2C(N)=O)cc1 (stereo not shown),"P4HB (Homo sapiens, UniProt P07237)","enzyme activity, inhibitor, absorbance",,pH 7.6,11700 nM
CCN(C)C(=O)Oc1ccccc1/C=C1\Cc2cc(OC)c(OC)cc2C1=O,CES2,"enzyme activity, inhibitor",,"33 min preincubation, added: fluorescein diacetate",0.56 ± 0.03 nM
CCC(CC)c1cc(C2CN3CCC2CC3CNC)nc(-c2ccncc2)n1 (stereo not shown),"ftsZ (Staphylococcus aureus, UniProt P0A031)","enzyme activity, inhibitor",,,189000 nM
CC[C@@H]1C(=O)N(C)c2cnc(Nc3ccc(C(=O)NCCCC[C@H](NC(=O)[C@@H](NC(=O)[C@H](CO)NC(=O)[C@H](Cc4cncn4CCCCCCCCc4ccccc4)NC(=O)[C@H](CC(C)C)NC(=O)[C@@H]4CCCN4C(C)=O)[C@@H](C)OP(=O)(O)O)C(N)=O)cc3OC)nc2N1C1CCCC1,"CLK2 (Homo sapiens, UniProt P49760)","enzyme activity, inhibitor",,,> 10000 nM
CC(C)C[C@H](NC(=O)[C@H](CC(C)C)NC(=O)[C@H](Cc1c[nH]cn1)NC(=O)CNC(=O)[C@@H](NC(=O)[C@H](C)NC(=O)[C@H](Cc1c[nH]c2ccccc12)NC(=O)[C@H](CCC(N)=O)NC(=O)[C@H](CC(N)=O)NC(=O)CNC(=O)[C@H](CC(C)C)NC(=O)[C@H](CCCNC(=N)N)NC(=O)[C@H](CCC(N)=O)NC(=O)[C@@H]1CCC(=O)N1)C(C)C)C(N)=O,"BRS3 (Homo sapiens, UniProt P32247)","human GRPR activity, cell-based",,,> 3000 nM
COc1ccc(N=Nc2cccc(NC(=O)CCCCCCC(=O)NO)c2)cc1,HDAC3,"enzyme activity, inhibitor",,trans isomer,30 ± 11 nM
CSCC[C@H](NC(=O)[C@H](C)N)C(=O)N[C@@H](CCCNC(=N)N)C(=O)N[C@@H](CCC(N)=O)C(=O)N[C@H](C(=O)N[C@@H](Cc1c[nH]cn1)C(=O)N[C@@H](CC(N)=O)C(=O)N[C@@H](Cc1ccccc1)C(=O)N[C@@H](Cc1ccccc1)C(=O)N[C@@H](Cc1ccccc1)C(=O)N[C@@H](Cc1ccccc1)C(=O)N[C@@H](Cc1ccccc1)C(=O)N[C@@H](Cc1ccccc1)C(=O)N[C@@H](CCCCN)C(=O)N[C@@H](CCCNC(=N)N)C(=O)N[C@@H](CCCNC(=N)N)C(=O)O)[C@@H](C)O,"histidine kinase ComD (Streptococcus pneumoniae serotype 4, UniProt A0A0H2US84)","reporter gene, antagonist","Streptococcus pneumoniae, TIGR4 comX::lacZ","30 min, 37 °C, added: CSP2 250 nM",> 10000 nM
COC(=O)C=CCCC(NC(=O)c1ccncc1C(=O)O)C(=O)NC(C(=O)N1CC(=O)CC1C(=O)NC(C(=O)NC(C(N)=O)C1CCCCC1)C1CCCCC1)C(C)(C)C (stereo not shown),"Protein-glutamine gamma-glutamyltransferase Z (Human, UniProt Q96PF1)","enzyme activity, inhibitor",,,1330 nM
